Measurements gathered from unrelated publications.
Each numbered part is a random draw from the data of one study; scales do not carry over between parts.
Chain of UniProt Q92772 (whole entry, looked up): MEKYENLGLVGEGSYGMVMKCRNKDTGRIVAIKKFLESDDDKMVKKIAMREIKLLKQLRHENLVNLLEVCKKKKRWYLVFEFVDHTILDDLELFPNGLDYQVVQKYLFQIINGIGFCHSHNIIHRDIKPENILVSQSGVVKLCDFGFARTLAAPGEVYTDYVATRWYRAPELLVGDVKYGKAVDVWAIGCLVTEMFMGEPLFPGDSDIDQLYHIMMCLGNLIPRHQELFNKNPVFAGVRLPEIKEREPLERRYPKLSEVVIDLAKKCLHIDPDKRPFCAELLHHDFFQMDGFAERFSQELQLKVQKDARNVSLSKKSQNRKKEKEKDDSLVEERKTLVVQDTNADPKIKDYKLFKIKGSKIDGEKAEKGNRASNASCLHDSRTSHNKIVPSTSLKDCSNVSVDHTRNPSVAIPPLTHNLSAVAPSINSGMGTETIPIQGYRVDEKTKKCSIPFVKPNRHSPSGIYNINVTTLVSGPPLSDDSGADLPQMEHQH
Chain of UniProt O15075 (whole entry, looked up): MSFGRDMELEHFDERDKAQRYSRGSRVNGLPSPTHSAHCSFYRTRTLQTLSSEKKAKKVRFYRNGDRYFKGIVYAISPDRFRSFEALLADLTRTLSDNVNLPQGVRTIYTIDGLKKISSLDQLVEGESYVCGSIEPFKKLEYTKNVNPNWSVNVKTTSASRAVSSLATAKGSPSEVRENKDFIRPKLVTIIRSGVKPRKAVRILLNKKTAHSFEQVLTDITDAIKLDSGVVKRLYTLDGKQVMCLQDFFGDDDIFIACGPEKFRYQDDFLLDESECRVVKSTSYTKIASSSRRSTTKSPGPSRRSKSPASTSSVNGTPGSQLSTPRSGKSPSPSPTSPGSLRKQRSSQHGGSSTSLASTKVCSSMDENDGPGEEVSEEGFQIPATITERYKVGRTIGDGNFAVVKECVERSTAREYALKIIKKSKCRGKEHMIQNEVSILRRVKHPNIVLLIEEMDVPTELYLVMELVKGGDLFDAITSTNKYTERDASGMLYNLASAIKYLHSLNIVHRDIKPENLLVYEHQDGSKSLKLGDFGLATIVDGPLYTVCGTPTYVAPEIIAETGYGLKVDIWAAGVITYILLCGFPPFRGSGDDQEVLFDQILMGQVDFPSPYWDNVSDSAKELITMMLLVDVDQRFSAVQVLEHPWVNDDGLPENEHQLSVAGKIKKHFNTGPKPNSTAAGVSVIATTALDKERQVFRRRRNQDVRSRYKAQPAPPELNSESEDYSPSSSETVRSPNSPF
Chain of UniProt O96017 (whole entry, looked up): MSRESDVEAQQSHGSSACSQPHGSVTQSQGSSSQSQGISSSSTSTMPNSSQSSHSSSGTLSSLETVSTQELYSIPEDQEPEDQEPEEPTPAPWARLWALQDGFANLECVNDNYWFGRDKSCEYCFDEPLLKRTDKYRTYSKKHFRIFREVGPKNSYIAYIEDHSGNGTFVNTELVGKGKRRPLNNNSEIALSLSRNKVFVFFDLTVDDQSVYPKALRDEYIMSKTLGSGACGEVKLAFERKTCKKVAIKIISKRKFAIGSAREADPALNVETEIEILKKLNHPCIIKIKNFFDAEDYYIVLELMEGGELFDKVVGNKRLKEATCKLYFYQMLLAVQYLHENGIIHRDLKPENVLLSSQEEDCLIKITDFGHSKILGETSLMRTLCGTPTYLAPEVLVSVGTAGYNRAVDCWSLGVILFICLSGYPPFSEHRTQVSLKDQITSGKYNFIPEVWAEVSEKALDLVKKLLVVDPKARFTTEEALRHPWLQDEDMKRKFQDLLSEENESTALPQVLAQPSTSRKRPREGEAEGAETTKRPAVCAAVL
Chain of UniProt Q9P0L2 (whole entry, looked up): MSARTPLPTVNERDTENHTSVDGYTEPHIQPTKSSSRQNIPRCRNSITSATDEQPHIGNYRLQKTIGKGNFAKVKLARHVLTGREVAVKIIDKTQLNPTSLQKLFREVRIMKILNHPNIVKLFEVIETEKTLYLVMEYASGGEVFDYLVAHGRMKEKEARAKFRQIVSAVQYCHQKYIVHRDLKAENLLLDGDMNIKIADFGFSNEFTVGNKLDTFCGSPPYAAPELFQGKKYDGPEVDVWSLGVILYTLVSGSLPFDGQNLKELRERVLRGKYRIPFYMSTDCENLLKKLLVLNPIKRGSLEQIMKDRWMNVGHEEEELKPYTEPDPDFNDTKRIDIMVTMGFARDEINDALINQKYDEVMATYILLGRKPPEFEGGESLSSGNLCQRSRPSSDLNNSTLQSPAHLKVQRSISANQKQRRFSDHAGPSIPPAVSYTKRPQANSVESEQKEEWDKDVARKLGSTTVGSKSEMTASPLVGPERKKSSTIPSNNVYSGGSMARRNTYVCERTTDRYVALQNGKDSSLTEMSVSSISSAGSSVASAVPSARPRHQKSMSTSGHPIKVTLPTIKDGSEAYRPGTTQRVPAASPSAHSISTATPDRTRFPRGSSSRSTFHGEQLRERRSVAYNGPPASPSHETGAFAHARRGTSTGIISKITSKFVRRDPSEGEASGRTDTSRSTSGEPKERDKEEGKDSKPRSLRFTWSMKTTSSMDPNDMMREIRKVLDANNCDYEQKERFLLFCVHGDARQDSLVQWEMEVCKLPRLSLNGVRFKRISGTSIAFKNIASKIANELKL
Chain of UniProt Q92630 (whole entry, looked up): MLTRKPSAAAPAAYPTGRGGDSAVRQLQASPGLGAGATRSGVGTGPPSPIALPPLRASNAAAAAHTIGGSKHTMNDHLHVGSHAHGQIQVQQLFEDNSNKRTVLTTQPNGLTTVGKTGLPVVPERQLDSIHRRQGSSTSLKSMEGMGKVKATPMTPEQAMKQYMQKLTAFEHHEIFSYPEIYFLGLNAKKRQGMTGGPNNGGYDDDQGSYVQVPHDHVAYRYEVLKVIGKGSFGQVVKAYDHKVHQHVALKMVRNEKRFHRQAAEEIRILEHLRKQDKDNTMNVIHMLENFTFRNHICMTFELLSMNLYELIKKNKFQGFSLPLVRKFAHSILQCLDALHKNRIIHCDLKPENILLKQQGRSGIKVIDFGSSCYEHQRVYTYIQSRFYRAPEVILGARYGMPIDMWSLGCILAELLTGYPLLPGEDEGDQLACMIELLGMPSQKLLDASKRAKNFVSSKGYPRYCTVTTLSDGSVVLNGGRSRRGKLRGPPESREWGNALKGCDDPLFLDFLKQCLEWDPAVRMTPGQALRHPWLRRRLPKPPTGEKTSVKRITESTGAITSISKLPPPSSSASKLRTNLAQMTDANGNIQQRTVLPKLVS

Set 1
Cell line: A-375
Concentration: 100 µM
Time: 18 h
`Cc1ccc(C(=O)C(C)CN2CCCCC2)cc1` (stereo not shown) gave a viability of 94.5%.
The viability of `C[C@H](CCC(=O)O)[C@H]1CC[C@H]2[C@@H]3[C@H](O)C[C@@H]4C[C@H](O)CC[C@]4(C)[C@H]3CC[C@]12C` is reported as 96.9%.
With `CN1CCN(CCCN2c3ccccc3Sc3ccc(C(F)(F)F)cc32)CC1` the viability was 7.87%.

Set 2
Target: Platelet-derived growth factor receptor alpha (PDGFRA, Homo sapiens, UniProt P16234)
Chain of UniProt P16234 (whole entry, looked up): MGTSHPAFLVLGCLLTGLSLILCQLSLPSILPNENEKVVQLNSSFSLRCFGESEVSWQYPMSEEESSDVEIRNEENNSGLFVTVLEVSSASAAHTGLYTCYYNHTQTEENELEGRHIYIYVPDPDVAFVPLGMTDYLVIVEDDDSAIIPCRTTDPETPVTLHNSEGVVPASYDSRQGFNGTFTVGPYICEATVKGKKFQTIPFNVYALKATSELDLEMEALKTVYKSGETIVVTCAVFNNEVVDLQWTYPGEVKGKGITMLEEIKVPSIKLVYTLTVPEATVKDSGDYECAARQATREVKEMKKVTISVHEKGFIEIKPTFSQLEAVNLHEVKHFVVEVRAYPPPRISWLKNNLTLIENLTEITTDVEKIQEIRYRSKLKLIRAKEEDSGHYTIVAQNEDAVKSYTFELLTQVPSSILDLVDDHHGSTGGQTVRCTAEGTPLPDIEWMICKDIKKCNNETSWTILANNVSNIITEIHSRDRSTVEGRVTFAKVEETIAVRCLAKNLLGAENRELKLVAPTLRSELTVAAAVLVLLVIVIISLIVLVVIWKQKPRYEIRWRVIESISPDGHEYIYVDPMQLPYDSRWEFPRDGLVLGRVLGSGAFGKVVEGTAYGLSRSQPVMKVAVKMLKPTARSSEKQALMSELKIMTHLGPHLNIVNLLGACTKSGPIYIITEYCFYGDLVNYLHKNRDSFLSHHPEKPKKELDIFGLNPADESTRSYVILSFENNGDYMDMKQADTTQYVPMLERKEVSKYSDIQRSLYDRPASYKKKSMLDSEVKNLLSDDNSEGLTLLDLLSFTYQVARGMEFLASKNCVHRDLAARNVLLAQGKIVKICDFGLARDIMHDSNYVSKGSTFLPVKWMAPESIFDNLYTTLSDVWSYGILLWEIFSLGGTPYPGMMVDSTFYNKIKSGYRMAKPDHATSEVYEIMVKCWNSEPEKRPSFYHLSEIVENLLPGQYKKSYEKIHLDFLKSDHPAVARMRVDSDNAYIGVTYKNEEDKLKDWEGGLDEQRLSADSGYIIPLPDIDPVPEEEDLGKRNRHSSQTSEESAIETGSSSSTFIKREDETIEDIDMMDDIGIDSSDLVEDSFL
Observed: enzyme activity
Mode: inhibitor
Concentration: 0.5 µM
Relative to: control
The remaining activity of `COc1cc2ncnc(Nc3ccc(Oc4ccccc4)cc3)c2cc1OC` is reported as 88.8%.
`COc1ccc(CNC(=O)Nc2ncc([N+](=O)[O-])s2)cc1` gave a remaining activity of 93%.
`O=C(Nc1cccc(Nc2cc(Nc3cccc(C(F)(F)F)c3)ncn2)c1)C1CC1` has a remaining activity of 86.4%.
For `NCCNc1ncc(C(N)=O)c(Nc2cccc(C(F)(F)F)c2)n1`, the remaining activity was 95.4%.
`Cc1ccc(NC(=O)c2ccc(CN3CCN(C)CC3)cc2)cc1Nc1nc(-c2cccnc2)cs1` gave a remaining activity of 1.64%.
`CNC(=O)c1cc(Oc2ccc(NC(=O)Nc3ccc(Cl)c(C(F)(F)F)c3)cc2)ccn1` gave a remaining activity of 7.77%.
The remaining activity of `O=C(O)c1ccc2c3c1cccc3c(=O)n1c3ccccc3nc21` is reported as 94.4%.
`CCOC(=O)c1c(C)[nH]c(/C=C2\C(=O)Nc3ccccc32)c1C` has a remaining activity of 82.8%.
With `O=C1NC(=O)C(c2cn(CCCO)c3ncccc23)=C1c1cnccn1` the remaining activity was 113%.
`OCC(O)CCON=C1C(c2c(O)[nH]c3ccccc23)=Nc2ccccc21` (stereo not shown) has a remaining activity of 76.7%.
For `C#Cc1cccc(Nc2ncnc3cc(OCCOC)c(OCCOC)cc23)c1`, the remaining activity was 84.4%.
`N#CC(C#N)=C(N)/C(C#N)=C/c1ccc(O)cc1` gave a remaining activity of 97.8%.
For `Nc1[nH]nc2nc3ccccc3nc12`, the remaining activity was 103%.
With `Cn1sc(=O)n(Cc2ccccc2)c1=O` the remaining activity was 84.1%.

Set 3
Structure (SMILES): CC(C)n1cnc(-c2ccc(F)cc2)c1-c1ncc(C(=O)Nc2ccc(N3CCN(C)CC3)cc2)[nH]1
Method: Phase 2a trial
Species: idiopathic pulmonary fibrosis patients
For item: back pain; dose not given, grade 4 maximum intensity, all arms: “patients with adverse events” read 0%.
It gave 0% for “patients with adverse events” (item: urinary tract infection; 30 mg once daily, grade 5 maximum intensity).
item: blood creatine phosphokinase increased; 60 mg once daily, grade 2 maximum intensity — “patients with adverse events”: 0%.
It gave 0% for “patients with adverse events” (item: neutrophil count increased; 30 mg once daily, grade 5 maximum intensity).

Set 4
SMILES: O=C(NC[C@@H]1[C@H]2CN(C(=O)OCc3cc(C(F)(F)F)cc(C(F)(F)F)c3)C[C@@H]12)c1ccc2[nH]nnc2c1
Observed: cell-free assay
Method: competition with immobilised ligand
Concentration: 1 µM
For DCLK1 (Homo sapiens, UniProt O15075): remaining binding read 94%.
The remaining binding was 95% (CDKL2 (Homo sapiens, UniProt Q92772)).
CHEK2 (Homo sapiens, UniProt O96017) — remaining binding: 86%.
DYRK2 (Homo sapiens, UniProt Q92630) — remaining binding: 77%.
MARK1 (Homo sapiens, UniProt Q9P0L2) — remaining binding: 98%.

Single results of other studies
Target: Diamine acetyltransferase 1 (Homo sapiens, UniProt P21673)
Mode: inhibitor
Concentration: 10 µM
Relative to: control
Residues used in one study (P21673 1-171): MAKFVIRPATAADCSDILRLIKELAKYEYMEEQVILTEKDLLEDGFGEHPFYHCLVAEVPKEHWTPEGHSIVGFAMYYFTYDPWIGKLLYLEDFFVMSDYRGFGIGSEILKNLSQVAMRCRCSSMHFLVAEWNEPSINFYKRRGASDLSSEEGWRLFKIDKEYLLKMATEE
`OCCCc1ccc(O)cc1` has a remaining activity of 104%.
`CC1CC[C@@]2(OC1)O[C@H]1C[C@H]3[C@@H]4CCC5CC(O)CC[C@]5(C)[C@H]4CC[C@]3(C)[C@H]1[C@@H]2C` (stereo partly shown) gave a remaining activity of 88.3%.
